# Measured values from different studies.
# Lines come from different studies, so protocols differ. Numbers after ± are the reported error.
SMILES,test,test system,conditions,scale,EC50
CC(C)(O)c1cn(-c2ccc(-c3cccc(S(C)(=O)=O)c3)cc2)c(C(C)(C)c2ccccc2Cl)n1,"gene induction, agonist, item: ABCG1","Macaca fascicularis, whole blood",,,140 nM
C[C@@H](NC(=O)N1C(=O)[C@H](Cc2ccnc(N)c2)[C@H]1C(=O)O)C1CCCCC1,"aPTT prolongation, Emax PK/PD model","human, plasma",,relative to: baseline,8.94 µg/mL
CC(C)C[C@@H](NC(=O)[C@H](C)NC(=O)CNC(=O)[C@@H](NC=O)C(C)C)C(=O)N[C@@H](C)C(=O)N[C@@H](C(=O)N[C@H](C(=O)N[C@@H](C(=O)N[C@@H](Cc1c[nH]c2ccccc12)C(=O)N[C@H](CC(C)C)C(=O)N[C@@H](Cc1ccc2cc[nH]c2c1)C(=O)N[C@H](CC(C)C)C(=O)N[C@@H](Cc1c[nH]c2ccccc12)C(=O)N[C@H](CC(C)C)C(=O)N[C@@H](Cc1c[nH]c2ccccc12)C(=O)NCCO)C(C)C)C(C)C)C(C)C,"H+/Na+ transport, pyranine pH-gradient",EYPC/cholesterol LUVs 2:1,,,34.7 ± 9.9 nM
CC[C@@H]1CN(C(=O)NCC(F)(F)F)C[C@@H]1c1cnc2cnc3[nH]ccc3n12,endoscopic response,"human, moderate-to-severe Crohn's disease","week 12/16, 50% response, average concentration",,0.0262 µg/mL
CC1(C)CCC(c2ccc(Cl)cc2)=C(CN2CCN(c3ccc(C(=O)NS(=O)(=O)c4ccc(N[C@H](CCN5CCOCC5)CSc5ccccc5)c(S(=O)(=O)C(F)(F)F)c4)cc3)CC2)C1,"cell kill, PI exclusion flow cytometry","CD3+ nodal neoplastic T cells, human",24 h,,21 nM
CC(C)C[C@@H](NC(=O)[C@H](C)NC(=O)CNC(=O)[C@@H](NC=O)C(C)C)C(=O)N[C@@H](C)C(=O)N[C@@H](C(=O)N[C@H](C(=O)N[C@@H](C(=O)N[C@@H](Cc1c[nH]c2ccccc12)C(=O)N[C@H](CC(C)C)C(=O)N[C@@H](Cc1cccc2[nH]ccc12)C(=O)N[C@H](CC(C)C)C(=O)N[C@@H](Cc1c[nH]c2ccccc12)C(=O)N[C@H](CC(C)C)C(=O)N[C@@H](Cc1c[nH]c2ccccc12)C(=O)NCCO)C(C)C)C(C)C)C(C)C,"H+/Na+ transport, pyranine pH-gradient",EYPC/EYPG LUVs 19:1,,,6.01 ± 2.74 nM
CC1(C)CCC(CN2CCN(c3ccc(C(=O)NS(=O)(=O)c4ccc(NCC5CCOCC5)c([N+](=O)[O-])c4)c(Oc4cnc5[nH]ccc5c4)c3)CC2)=C(c2ccc(Cl)cc2)C1,"cell kill, PI exclusion flow cytometry","normal CD3+ T lymphocytes, human, lymph node",24 h,,63 nM
Cc1ccc(C(=O)Nc2ccnc(S(N)(=O)=O)c2)c(N2CCCC(F)(F)CC2)n1,capsaicin-induced flare,"rhesus macaque, plasma",together with: capsaicin,,146 nM
CC(C)C[C@@H](NC(=O)[C@H](C)NC(=O)CNC(=O)[C@@H](NC=O)C(C)C)C(=O)N[C@@H](C)C(=O)N[C@@H](C(=O)N[C@H](C(=O)N[C@@H](C(=O)N[C@@H](Cc1c[nH]c2ccccc12)C(=O)N[C@H](CC(C)C)C(=O)N[C@@H](Cc1cccc2cc[nH]c12)C(=O)N[C@H](CC(C)C)C(=O)N[C@@H](Cc1c[nH]c2ccccc12)C(=O)N[C@H](CC(C)C)C(=O)N[C@@H](Cc1c[nH]c2ccccc12)C(=O)NCCO)C(C)C)C(C)C)C(C)C,"H+/Na+ transport, pyranine pH-gradient",EYPC/EYPG LUVs 19:1,,,3.51 ± 1.6 nM
Cn1cncc1-c1c(F)cncc1NC(=O)c1c(N)nn2cc(F)cnc12,"inhibition of erythrocyte progenitor production, model, semi-mechanistic PopPK-PD, item: reticulocyte count","human, plasma",,,0.736 µg/mL

# Repeated from above:
SMILES,test,test system,conditions,scale,EC50
CC1(C)CCC(CN2CCN(c3ccc(C(=O)NS(=O)(=O)c4ccc(NCC5CCOCC5)c([N+](=O)[O-])c4)c(Oc4cnc5[nH]ccc5c4)c3)CC2)=C(c2ccc(Cl)cc2)C1,"cell kill, PI exclusion flow cytometry","normal CD3+ T lymphocytes, human, lymph node",24 h,,63 nM
